Measured values of several laboratories.

SMILES	target or system	assay	test system	conditions	how to read	endpoint	result
COc1ccccc1-c1ccncc1C(=O)Nc1nnc(OCc2ccc(Cl)cc2)s1	PEO1 BRCA2-mutant	–	–	1.00 µM, added: olaparib 0.125 µM	–	colony survival	0%
CNS(=O)(=O)Nc1nccc(Cc2c(C)c3ccc(Oc4ncccc4F)cc3oc2=O)c1F	NCI-H596	cell viability	–	7 days	–	IC50	843 nM
CCN(C(=O)c1cc(F)ccc1Oc1nncnc1N1CCC2(C1)CN([C@H](CCCN(C)CCOC)C(C)C)C2)C(C)C	SK-N-AS	cell growth	–	168 h	–	GI50	> 10 µM
CC(C)c1ccc(N(C)c2ccc3c(c2)OCC[C@H]3CNc2cnccc2C(=O)O)cc1	T84	cell growth or viability, ATP luminescence	–	7 days	–	IC50	21 nM
CCN(CC)CC(=O)Nc1cccc(-n2cc(-c3ccc4ccc(-c5cn(-c6cccc(NC(=O)CN(CC)CC)c6)nn5)cc4c3)nn2)c1	RCC4	PCR angiogenesis array, measured: TIMP3	–	5 x IC50, 4 h, normoxia	baseline: untreated	fold regulation	5.54 fold
COC1CN([C@H]2CC[C@H]([C@@]3(C)Oc4c(Cl)cc(C(=O)NCc5c(SC)cc(C)[nH]c5=O)c(C)c4O3)CC2)C1	–	RNA-seq, measured: MARCHF3	human, whole blood	dose not given, 24 h	baseline: pretreatment baseline	log2 fold change	1.48
CN1CCCNC(=O)c2cccc(c2)C(=O)NCCCN(C)CCCNc2cccc3c2C(=O)c2cccc(c2C3=O)NCCC1	SAS	RNA-Seq, measured: AMN1 mRNA	–	1 µM, 6 h	baseline: untreated cells	log2 fold change	-2.65
Cc1ncsc1-c1ccc(C(C)NC(=O)C2CC(O)CN2C(=O)C(NC(=O)CCCCCCCCCCN2CCCC(Nc3ncc(Cl)c(Nc4ccccc4S(=O)(=O)C(C)C)n3)C2)C(C)(C)C)cc1 (stereo not shown)	22Rv1	RNA-seq, measured: RBM23 mRNA	–	concentration not given	baseline: DMSO	log2 fold change	-1.09
C=CC(=O)Nc1cccc(Cn2ncc3cnc(Nc4cnn(CCOC)c4)nc32)c1	human DLK	KINOMEscan	–	100 nM	baseline: control	binding	93%
Cn1ncc2cc(-c3cncc(Cl)c3N3CCC4(CCNC4=O)CC3)ccc21	LS174T	gene expression, microarray, measured: GDF15 (PDF) mRNA	–	concentration not given, 4 h	baseline: untreated cells	log2 fold change	-1.61

Some of these lines once more:
SMILES	target or system	assay	test system	conditions	how to read	endpoint	result
COC1CN([C@H]2CC[C@H]([C@@]3(C)Oc4c(Cl)cc(C(=O)NCc5c(SC)cc(C)[nH]c5=O)c(C)c4O3)CC2)C1	–	RNA-seq, measured: MARCHF3	human, whole blood	dose not given, 24 h	baseline: pretreatment baseline	log2 fold change	1.48
